Experimental data gathered from unrelated publications.
Compare with care: the assays were run in different laboratories. “And” joins repeats or separate records; there may be more than shown. ± marks the error that the study gave.

C[C@H]1C(OC(=O)CCC(=O)O)O[C@@H]2O[C@@]3(C)CC[C@H]4[C@H](C)CCC1[C@@]24OO3 (stereo partly drawn)
IC50 (CEM/ADR5000 (multidrug-resistant); cell viability, XTT; 10% fetal calf serum): 0.46 ± 0.03 µM

COc1c(C)c(OC(=O)c2ccccc2)c(C)c(OC(=O)c2ccccc2)c1C(=O)/C=C/c1ccccc1
IC50 (CL normal liver cells; cytotoxicity, sulforhodamine B; 72 h): 25.3 µM

O=C(O)c1ccccc1Nc1ccc(Oc2ccccc2)cc1
IC50 (MDA-kb2; cytotoxicity; 20 h): 181 ± 99.4 µM

O=C1N=C(N2N=C(c3cccs3)CC2c2ccc(F)cc2)SC1=Cc1ccc(O)cc1 (stereo not drawn)
IC50 (MCF-10A; cell growth or viability): 72.8 µM

CC(C)COC1O[C@@H]2O[C@@]3(C)CC[C@H]4[C@H](C)CCC([C@H]1C)[C@@]24OO3 (stereo partly drawn)
IC50 (CEM/ADR5000 (multidrug-resistant); cell viability, XTT; 10% fetal calf serum): 7.96 ± 3.76 µM

COc1c(C)c(O)c(C(=O)C=Cc2ccccc2)c(OC)c1C
IC50 (CL normal liver cells; cytotoxicity, sulforhodamine B; 72 h): 25.4 µM

CCCCn1cc(C(=O)O)c(=O)c2cc(F)c3[nH]nnc3c21
IC50 (HCT-116; cell growth, SRB; 72 h): 74.8 ± 1.2 µg/mL

C[C@@H]1O[C@@H](OC(=O)/C=C/c2ccc(O)cc2)[C@H](OC(=O)/C=C/c2ccc(O)cc2)[C@H](O)[C@H]1O
IC50 (MCF-10A; cytotoxicity, MTT; 48 h): 17.4 ± 0.86 µM

COc1c(C)c(OS(=O)(=O)c2ccccc2)c(C)c2c1C(=O)CC(c1ccccc1)O2 (stereo not drawn)
IC50 (CL normal liver cells; cytotoxicity, sulforhodamine B; 72 h): > 50 µM

Cc1[nH][n+]([Pt-2]([Cl])([n+]2[nH]c(C)c(CSCc3ccccc3)c2C)[n+]2[nH]c(C)c(CSCc3ccccc3)c2C)c(C)c1CSCc1ccccc1.Cl
IC50 (U-937; cytotoxicity, 7-AAD flow cytometry; 24 h): 0.31 ± 0.02 µM

CCCC(CCC)C(=O)[O][Pt]([Cl])([Cl])[O]C(=O)C(CCC)CCC.N.N
IC50 (HCT-116 p53+/+; cytotoxicity; 72 h): 0.46 ± 0.07 µM

Cc1[nH][n+]([Pd-2]([Br])([Br])[n+]2[nH]c(C)c(CSC3CCCCC3)c2C)c(C)c1CSC1CCCCC1
IC50 (U-937; cytotoxicity, 7-AAD flow cytometry; 24 h): 0.28 ± 0.04 µM

Cc1ccccc1C=NNC(=O)c1ccc(-c2nc3cc(F)ccc3[nH]2)cc1
IC50 (CCD-841 CoN; cytotoxicity, MTT; 24 h, 10% FBS): 210 µg/mL

COc1ccc(C=C2SC(N3N=C(c4cccs4)CC3c3ccc(F)cc3)=NC2=O)cc1 (stereo not drawn)
IC50 (MCF-10A; cell growth or viability): 39.7 µM

O=C(Cc1ccccc1)Nc1nc2ccccc2n1Cc1ccccc1
IC50 (MDA-MB-231; cell growth or viability, SRB): 10.8 µM and ~10 µM

Some of these lines once more:
COc1c(C)c(OC(=O)c2ccccc2)c(C)c(OC(=O)c2ccccc2)c1C(=O)/C=C/c1ccccc1
IC50 (CL normal liver cells; cytotoxicity, sulforhodamine B; 72 h): 25.3 µM
